# Published values pooled from the literature.
# Compare with care: the assays were run in different laboratories. ± gives the spread as reported.
# Si: Sucrase-isomaltase, intestinal (Si, Rattus norvegicus, UniProt P23739)
SMILES,target or system,assay,test system,conditions,how to read,endpoint,value
CO[C@H]1CCN(Cc2c(C)cc(C)c3[nH]ccc23)[C@H](CO)C1,"Complement factor B (Homo sapiens, UniProt P00751)","enzyme activity, inhibitor",,,,IC50,3.5 µM
CC(C)(CO)NCc1ccc(-c2cc(Cl)cc(Cl)c2)o1,"DRD3 (Homo sapiens, UniProt P35462)",binding,,,,Ki,0.2 µM
CC(=O)O[C@@H]1[C@H]2[C@@H](OC(=O)Cc3ccccc3)[C@@H](C)C[C@]2(OC(C)=O)C(=O)/C(C)=C/[C@@H]2[C@H](CC[C@@]13CO3)C2(C)C,"Regulator of chromosome condensation (Homo sapiens, UniProt P18754)","binding, SPR",,,,Kd,2.51 µM
CCN(CC)C(=O)[C@@H]1C=C2c3cccc4c3c(cn4C(=O)c3ccco3)C[C@H]2N(C)C1,"HTR1A (Homo sapiens, UniProt P08908)","ligand displacement, radioligand",,,,Ki,0.385 µM
CCN(CC)C(=O)c1ccc(C(c2cccc(O)c2)N2CC(C)N(Cc3ccccc3)CC2C)cc1 (stereo not drawn),"OPRD1 (Homo sapiens, UniProt P41143, Y129F)",agonist,,,,EC50,0.061 nM
c1ccc2c(c1)nc(CNCC13CC4CC(CC(C4)C1)C3)n2CC1CCCCC1,"Penicillin-binding protein 2X (Streptococcus pneumoniae R6, UniProt P59676)","binding, MST",,,,Kd,120 µM
CC(C)CC(C(=O)N1CC2(CC1C#N)C(=O)Nc1ccccc12)N(C)C(=O)c1cc2c(F)cc(F)c(F)c2[nH]1 (stereo not drawn),"Cathepsin K (CTSK, Homo sapiens, UniProt P43235)","enzyme activity, inhibitor",,,,IC50,18.5 µM
COc1ccccc1C(C[N+](=O)[O-])c1c(-c2ccccc2)[nH]c2ccccc12 (stereo not drawn),"Cannabinoid receptor 1, with Gi1 (CNR1, Homo sapiens, UniProt P21554)","Gi1 dissociation, agonist, BRET",HEK293,,,EC50,320 ± 30 nM
CCCCCc1cc(O)c2c(c1)OC(C)(C)C1=C2[C@@H](O)[C@@](C)(O)CC1,Si,"enzyme activity, inhibitor, absorbance",,,,IC50,410 µM
Cc1ccc2c(C(C[N+](=O)[O-])c3cccs3)c(-c3ccccc3)[nH]c2c1 (stereo not drawn),"CNR1 (Homo sapiens, UniProt P21554, Y397A)","β-arrestin recruitment, agonist, luciferase",,,,EC50,580 nM
CC(C)(C)C(=O)OCOP(=O)(OCOC(=O)C(C)(C)C)C1CCCN(O)C1=O (stereo not drawn),NCI-H460,,,,,log TGI,-4.89 log M
CC[C@H](C)[C@H](NC(=O)[C@H](CO)NC(=O)[C@H](CC(N)=O)NC(=O)[C@H](CC(C)C)NC(=O)[C@H](Cc1ccc(O)cc1)NC(=O)[C@H](CCCCN)NC(=O)[C@H](CCCCN)NC(=O)[C@@H](NC(=O)[C@H](C)NC(=O)[C@H](CCSC)NC(=O)[C@H](CCC(N)=O)NC(=O)[C@H](CCCCN)NC(=O)[C@H](CCCN=C(N)N)NC(=O)[C@H](CC(C)C)NC(=O)[C@H](CCCN=C(N)N)NC(=O)[C@@H](NC(=O)[C@H](Cc1ccc(O)cc1)NC(=O)[C@H](CC(N)=O)NC(=O)[C@H](CC(=O)O)NC(=O)[C@@H](NC(=O)[C@H](Cc1ccccc1)NC(=O)[C@@H](NC(=O)[C@H](C)NC(=O)[C@H](CC(=O)O)NC(=O)[C@H](CO)NC(=O)[C@@H](N)Cc1c[nH]cn1)C(C)C)[C@@H](C)O)[C@@H](C)O)C(C)C)C(=O)N[C@@H](CC(C)C)C(=O)N[C@@H](CC(N)=O)C(N)=O,"ADCYAP1R1 (Homo sapiens, UniProt P41586, del89-109)","calcium signal, agonist, fluorescence",,,,EC50,20.9 nM
O=C1NC(=O)c2c1c1cc(F)c[n+]3c1c1c2c2cc(O)ccc2[n]1[Ru-4]312([N]=C=S)[S+]3CC[S+]1CC[S+]2CC3 (stereo not drawn),"TBK1 (Homo sapiens, UniProt Q9UHD2)",enzyme activity,,"100 nM, human enzyme, together with: 10 µM ATP",reference: untreated,remaining activity,40%
CCCCCn1cc(C(=O)c2cccc3c2CC(C)(C)C3)c2ccccc21,"CNR2 (Homo sapiens, UniProt P34972, V261L)","cAMP, agonist, BRET",,,,EC50,2.14 nM
CC(C)[C@H]1NC(=O)C[C@H]2/C=C/CCSSC[C@@H](NC1=O)C(=O)N[C@H](Cc1cccc3ccccc13)C(=O)NCC(=O)O2,"ALK (Homo sapiens, UniProt Q9UM73, F1174L)","enzyme activity, inhibitor",,10 µM,,inhibition,-8.1%
CN(C)[C@H]1C[C@@]23CC[C@@]4(O2)C(=CC[C@]2(C)[C@@H](c5ccc6ccncc6c5)CC[C@H]24)C=C3[C@@H](O)[C@@H]1O,"MAP3K3 (Homo sapiens, UniProt Q99759)","ATP probe labelling, inhibitor, KiNativ profiling",,0.1 µM,,inhibition,2.6%
CS(C)(=O)=Nc1ccc(-c2ccc(-c3nc4cc(O[C@@H]5CO[C@H]6[C@@H]5OC[C@H]6O)[nH]c4cc3F)cc2)cc1,"ALK (Homo sapiens, UniProt Q9UM73)","enzyme activity, inhibitor",,10 µM,,inhibition,2%
COc1ccccc1-c1n[nH]c2nc(NC3CCN(C(=O)Cc4ccc(F)cc4F)CC3)ncc12,,"bead binding, competition bead pull-down, item: LINJ.30.3480",Leishmania donovani extract,10 µM,reference: vehicle,relative abundance,0.93
O=C1NC2(CC2)COc2ncc(F)cc2[C@H]2COCCN2c2ccn3ncc1c3n2,,,"Sprague-Dawley rat, male, serum","oral, 10 mg/kg/day, 4 weeks daily, end of treatment",,total cholesterol,1.24 ± 0.29 mmol/L
O=[N+]([O-])CC(c1cccs1)c1c(-c2ccccc2)[nH]c2ccccc12 (stereo not drawn),"CNR1 (Homo sapiens, UniProt P21554)","β-arrestin recruitment, agonist, luciferase",,,,EC50,6510 nM
CCCCCc1cc(O)c2c(c1)OC(C)(C)c1cc(O)c(C)cc1-2,Si,"enzyme activity, inhibitor, absorbance",,,,IC50,90 µM

# Some of these lines once more:
SMILES,target or system,assay,test system,conditions,how to read,endpoint,value
O=C1NC(=O)c2c1c1cc(F)c[n+]3c1c1c2c2cc(O)ccc2[n]1[Ru-4]312([N]=C=S)[S+]3CC[S+]1CC[S+]2CC3 (stereo not drawn),"TBK1 (Homo sapiens, UniProt Q9UHD2)",enzyme activity,,"100 nM, human enzyme, together with: 10 µM ATP",reference: untreated,remaining activity,40%
CC(C)CC(C(=O)N1CC2(CC1C#N)C(=O)Nc1ccccc12)N(C)C(=O)c1cc2c(F)cc(F)c(F)c2[nH]1 (stereo not drawn),"Cathepsin K (CTSK, Homo sapiens, UniProt P43235)","enzyme activity, inhibitor",,,,IC50,18.5 µM
